# Values quoted from earlier work as cited in several papers.
# Each line is one published result; not all experiments were run side by side. Numbers after ± are the reported error.
# UniProt Q9P0L2, sequence (whole entry, looked up): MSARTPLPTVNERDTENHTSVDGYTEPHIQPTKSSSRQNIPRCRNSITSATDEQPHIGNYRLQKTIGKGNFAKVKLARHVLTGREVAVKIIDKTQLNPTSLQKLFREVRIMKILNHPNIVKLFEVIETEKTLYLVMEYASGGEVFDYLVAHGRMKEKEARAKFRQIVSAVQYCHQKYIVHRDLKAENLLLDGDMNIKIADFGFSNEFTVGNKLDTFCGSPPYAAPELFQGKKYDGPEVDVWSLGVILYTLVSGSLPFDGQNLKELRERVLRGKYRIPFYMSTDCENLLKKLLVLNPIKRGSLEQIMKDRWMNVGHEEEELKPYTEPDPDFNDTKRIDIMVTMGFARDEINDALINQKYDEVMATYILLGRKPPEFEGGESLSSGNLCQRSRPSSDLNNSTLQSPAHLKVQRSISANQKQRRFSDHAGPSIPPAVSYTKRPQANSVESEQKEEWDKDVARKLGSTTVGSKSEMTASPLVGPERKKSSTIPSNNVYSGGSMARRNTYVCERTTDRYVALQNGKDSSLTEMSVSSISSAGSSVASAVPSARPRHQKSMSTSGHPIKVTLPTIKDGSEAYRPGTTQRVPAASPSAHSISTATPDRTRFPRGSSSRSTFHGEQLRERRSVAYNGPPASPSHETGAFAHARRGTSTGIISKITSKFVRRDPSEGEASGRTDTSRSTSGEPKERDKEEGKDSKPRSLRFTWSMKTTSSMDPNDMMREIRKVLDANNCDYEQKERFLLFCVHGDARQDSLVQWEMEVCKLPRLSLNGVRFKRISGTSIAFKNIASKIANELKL
Compound,target or system,assay,system,setting,how to read,measurement,result
Cc1cc(Nc2ccc(C(F)(F)F)c(F)c2)n2ncnc2n1,,,10 mM HCl,pH 2,,kinetic solubility,10 µM
NC12CNCCNCC(N)(CNCCNC1)CNCCNC2,,,,ammonium group deprotonation,,pKa2,~5.3
CO[C@@H](C)Cn1c(=O)n(C)c2cnc3ccc(-c4cncc(C(C)(C)O)c4)cc3c21,,measured: grade ≥3 fatigue,cancer patients,"dose not given, monotherapy",,patients with related adverse event,6.3%
CC1(C)CCC(c2ccc(Cl)cc2)=C(CN2CCN(c3ccc(C(=O)NS(=O)(=O)c4ccc(N[C@H](CCN5CCOCC5)CSc5ccccc5)c(S(=O)(=O)C(F)(F)F)c4)cc3)CC2)C1,,,thoracic lymph duct-cannulated dog,,,lymphatic bioavailability,~59%
CC1(C)CCC2(CC1)N[C@@H](C(=O)N[C@@H]1CC[C@@H](C(N)=O)OC1)[C@H](c1ccnc(Cl)c1F)[C@]21C(=O)Nc2cc(Cl)ccc21,,,patients with solid tumours or lymphomas,"dose not given, grade ≥3, first-in-human trials",,patients with related thrombocytopenia,19%
Cn1cncc1[C@@](N)(c1ccc(Cl)cc1)c1ccc2c(c1)c(-c1cccc(Cl)c1)cc(=O)n2C,,,adult patients,,,Tmax,3 h
Nc1ccn([C@@H]2O[C@H](CO)[C@@H](O)C2(F)F)c(=O)n1,,,pancreatic cancer patients,dose not given,,dose reductions due to Thrombocytopenia,20%
CN1CC(=O)N2[C@H](c3ccc4c(c3)OCO4)c3[nH]c4ccccc4c3C[C@@H]2C1=O,,,rat,"oral, 1 mg/kg",,Cmax,82.1 ± 46.3 ng/mL
OC(Cn1cncn1)(Cn1cncn1)c1ccc(F)cc1F,,,human,"oral, 400 mg single dose",,AUC,115000 ng·h/mL
Nc1cccc2c1C(=O)N(C1CCC(=O)NC1=O)C2=O (stereo not drawn),,,relapsed refractory multiple myeloma patients,"dose not given, grade 3-4",,pneumonia incidence,8%
N#C[C@@]1(c2ccc3c(N)ncnn23)O[C@H](CO)[C@@H](O)[C@H]1O,,,dog,"intravenous, 2 mg/kg, unadjusted NCATS data",,Tmax,0.08 h
CN[C@@H](C)C(=O)N[C@H]1CN(S(=O)(=O)c2cccc(S(=O)(=O)N3CC[C@H]4CC[C@@H](C(=O)NC(c5ccccc5)c5ccccc5)N4C(=O)[C@@H](NC(=O)[C@H](C)NC)C3)c2)CC[C@H]2CC[C@@H](C(=O)NC(c3ccccc3)c3ccccc3)N2C1=O,,,advanced solid tumour patients,"dose not given, monotherapy",,TEAE abdominal pain incidence,13%
CN(C)C(=O)c1cc2cnc(Nc3ccc(N4CCNCC4)cn3)nc2n1C1CCCC1,,measured: vomiting,advanced solid tumour or lymphoma patients,"dose not given, continuous dosing",baseline: patients,adverse event incidence,21.1%
CCN1CCN(Cc2ccc(Nc3ncc(F)c(-c4cc(F)c5nc(C)n(C(C)C)c5c4)n3)nc2)CC1,,,human,"dose not given, steady state, geometric mean",,apparent volume Vss/F,~1300 L
CCC(CC)C(=O)O,,scoliosis or lordosis,zebrafish embryo,nominal concentration,,EC10,892 µM
CC(C)n1c(Nc2cccnc2)nc2cnc(Nc3ccc(N4CCN(C)CC4)cc3)nc21,,,human,50 to 150 mg,,tolerability,not toxic
Cc1ccc([C@@H]2O[C@H](CO)[C@@H](O)[C@H](O)[C@H]2O)cc1Cc1ccc(-c2ccc(F)cc2)s1,,,"human, preserved kidney function","100 mg, steady state, mean",,AUC(0-24),6060 ng·h/mL
CO[C@H]1C[C@@H]2CC[C@@H](C)[C@@](O)(O2)C(=O)C(=O)N2CCCC[C@H]2C(=O)O[C@H]([C@H](C)C[C@@H]2CC[C@@H](OCCO)[C@H](OC)C2)CC(=O)[C@H](C)/C=C(\C)[C@@H](O)[C@@H](OC)C(=O)[C@H](C)C[C@H](C)/C=C/C=C/C=C/1C,,,plasma,population PK two-compartment,,apparent clearance (CL/F),18.8 L/h
Cc1nccn1CC1CCc2c(c3ccccc3n2C)C1=O (stereo not drawn),,,rat,"4 mg/kg, without tariquidar",,clearance,50 ± 13.3 mL/min/kg
NC(=O)N1c2ccccc2CC(O)c2ccccc21 (stereo not drawn),,non-compartmental analysis,healthy adults,,,clearance,~3 L/h
CC(C)(C(=O)O)c1ccc(C(O)CCCN2CCC(C(O)(c3ccccc3)c3ccccc3)CC2)cc1 (stereo not drawn),,,healthy volunteers,"dose not given, reduced P-gp activity category",,AUC(0-6 h),> 218 ng·h/mL
CCCCOC(=O)c1ccc(O)cc1,,,,pH 7.4,,logD,3.51
O=C(O)CN(CCN(CC(=O)O)CC(=O)O)CCN(CC(=O)O)CC(=O)O,,"pH-potentiometry, measured: logK3H",0.1 M NaClO4,25 °C,,protonation constant (log),4.13
CCO[C@H]1CCN(Cc2c(OC)cc(C)c3[nH]ccc23)[C@H](c2ccc(C(=O)O)cc2)C1,,,human plasma,10000 ng/mL,,maximum unbound fraction,25%
c1ccc2c(c1)ccc1c3ccccc3ccc21,,slow stirring,,,,logKow,5.95
O=C1Nc2ccc(Cl)cc2[C@@](C#CC2CC2)(C(F)(F)F)O1,,,HIV-infected patients,"600 mg once daily, multiple doses",,steady-state concentration,1640 ± 930 ng/mL
CC(C)c1ncc(C(=O)N2CCOC3(CCN(Cc4ccc(F)c(CCNC[C@H](O)c5ccc(O)c6[nH]c(=O)sc56)c4)CC3)C2)s1,,,"human, plasma",inhaled,,Tlast,48 h
COc1cc2c(Oc3ccc4[nH]c(C)cc4c3F)ccnc2cc1OCC1(N)CC1,,,Beagle dog,"0.12 mg/kg, 8 h, NOAEL dose",,AUC(0-t),51.7 ng·h/mL
Nc1nc(=O)n([C@@H]2CS[C@H](CO)O2)cc1F,,,mouse,600 mg/kg,,bioavailability,85%
COc1cc2nccc(Oc3ccc(NC(=O)C4(C(=O)Nc5ccc(F)cc5)CC4)cc3)c2cc1OC,,,"cancer patients, real-world",dose not given,,patients requiring dose reduction,≤ 75%
C=CC(=O)N1CCC([C@@H]2CCNc3c(C(N)=O)c(-c4ccc(Oc5ccccc5)cc4)nn32)CC1,,,human patients,"oral, 40 mg once daily, day 8",,AUC(0-8h),339 ± 125 ng·h/mL
Cc1ncc([N+](=O)[O-])n1CCO,,,human,,,CL,1 mL/min/kg
Cc1cc(-c2nccc3c2ccn3CC(=O)Nc2ccc(-c3cnccn3)cn2)ccn1,,,dog,"up to 30 mg/kg/day, days 5 and 25",,ECG effects,no effect
C#C[C@]1(O)CC[C@H]2[C@@H]3CCc4cc(O)ccc4[C@H]3CC[C@@]21C,,,HCl fasted stomach medium,0.083 h,,cumulative release,12%
Cn1ncnc1[C@H]1c2n[nH]c(=O)c3cc(F)cc(c23)N[C@@H]1c1ccc(F)cc1,,,human,,,absorption lag time,0.243 h
CC1(C)CCC(CN2CCN(c3ccc(C(=O)NS(=O)(=O)c4ccc(NCC5CCOCC5)c([N+](=O)[O-])c4)c(Oc4cnc5[nH]ccc5c4)c3)CC2)=C(c2ccc(Cl)cc2)C1,,legacy population PK model,human,dose not given,,apparent peripheral volume (V3/F),119 L
CNC(=O)c1c(C)oc2cc(Oc3ncnc4cc(OC)c(OC)cc34)ccc12,,,urine,"5 mg radiolabelled, time not given",,dose recovered,~60%
Nc1cc(C(F)(F)F)c(-c2nc(N3CCOCC3)nc(N3CCOCC3)n2)cn1,"MARK1 (Homo sapiens, UniProt Q9P0L2)",enzyme activity,,10 µM,baseline: untreated,remaining activity,75%
C[Si]1(C)O[Si](C)(C)O[Si](C)(C)O[Si](C)(C)O[Si](C)(C)O1,,,,"0.13 0.24 µg/L in water, 24.6 °C",,log KOW,8.07
Nc1nc(=O)n([C@@H]2C=C[C@H](CO)O2)cc1F,,,dog,,,oral bioavailability,50%
CNC(C)C1CCC(N)C(OC2C(N)CC(N)C(OC3OCC(C)(O)C(NC)C3O)C2O)O1 (stereo not drawn),Escherichia coli,,clinical isolate RKI-No_867/14,,,MIC,≤ 0.5 µg/mL
C=CC(=O)NC1CCN(c2ncc3ncnc(Nc4ccc(Oc5ccc6c(c5)ncn6C)c(C)c4)c3n2)CC1,,,human patients,"oral, 120 mg once daily",,treatment discontinuation due to TRAEs,3%
CN(C)c1ccc2nc3ccc(=[N+](C)C)cc-3sc2c1,,,human,,,bioavailability,~73%
Nc1ncnc2c1ncn2[C@@H]1O[C@H](CO)C[C@@H]1F,,,dog,,,oral bioavailability,83%
CC1(C)S[C@@H]2[C@H](NC(=O)[C@H](N)c3ccccc3)C(=O)N2[C@H]1C(=O)O,Escherichia coli,,clinical isolate RKI-No_97/15,,,MIC,> 16 µg/mL
C[C@]1(c2nc3c(C(N)=O)cccc3[nH]2)CCCN1,,,,,,pKa2,12.8
O=C(O)CN(CC(=O)O)CC(=O)O,,"pH-potentiometry, measured: logK1H",0.15 M NaClO4,25 °C,,protonation constant (log),9.22
O=C(O)C[C@H](O)C[C@H](O)/C=C/c1c(C2CC2)nc2ccccc2c1-c1ccc(F)cc1,,,Sprague Dawley rats,"dose not given, together with: silymarin",baseline: without silymarin,AUC(0-12h) increase,84%
C=C1[C@H](CO)[C@@H](O)C[C@@H]1n1cnc2c(=O)[nH]c(N)nc21,,,rat,10 mg/kg,,oral bioavailability,37 to 80%
CO[C@H]1/C=C/O[C@@]2(C)Oc3c(C)c(O)c4c(O)c(c(/C=N/N5CCN(C)CC5)c(O)c4c3C2=O)NC(=O)/C(C)=C\C=C\[C@H](C)[C@H](O)[C@@H](C)[C@@H](O)[C@@H](C)[C@H](OC(C)=O)[C@@H]1C,,,"rat, plasma","intravenous, 20 mg/kg",,Cmax,~30 µM
C[C@H]1COCCN1c1nc(-c2cnc(N)cc2C(F)F)nc(N2CCOCC2)n1,Daoy,,,,,GI50,0.366 µM
COc1ccc([C@@H](O)c2cc(-c3ncnc4cc(N5CCOCC5)ccc34)c(F)cc2Cl)nn1,,,mouse,"oral, 20 mg/kg",,terminal half-life,2.4 h
COc1ccc([C@@H]2Sc3ccccc3N(CCN(C)C)C(=O)[C@@H]2OC(C)=O)cc1,,,rat,,,plasma clearance,52.5 mL/min/kg
CC(=O)OCC(CCn1cnc2cnc(N)nc21)COC(C)=O,,,rat,,,oral bioavailability,41%
CCCCCCCCCCCCCCCC(=O)N[C@@H](CCC(=O)NCCCC[C@H](NC(=O)[C@H](C)NC(=O)[C@H](C)NC(=O)[C@H](CCC(N)=O)NC(=O)CNC(=O)[C@H](CCC(=O)O)NC(=O)[C@H](CC(C)C)NC(=O)[C@H](Cc1ccc(O)cc1)NC(=O)[C@H](CO)NC(=O)[C@H](CO)NC(=O)[C@@H](NC(=O)[C@H](CC(=O)O)NC(=O)[C@H](CO)NC(=O)[C@@H](NC(=O)[C@H](Cc1ccccc1)NC(=O)[C@@H](NC(=O)CNC(=O)[C@H](CCC(=O)O)NC(=O)[C@H](C)NC(=O)[C@@H](N)Cc1cnc[nH]1)[C@@H](C)O)[C@@H](C)O)C(C)C)C(=O)N[C@@H](CCC(=O)O)C(=O)N[C@@H](Cc1ccccc1)C(=O)N[C@H](C(=O)N[C@@H](C)C(=O)N[C@@H](Cc1c[nH]c2ccccc12)C(=O)N[C@@H](CC(C)C)C(=O)N[C@H](C(=O)N[C@@H](CCCNC(=N)N)C(=O)NCC(=O)N[C@@H](CCCNC(=N)N)C(=O)NCC(=O)O)C(C)C)[C@@H](C)CC)C(=O)O,,,overweight or obese adults,3.0 mg,,cholelithiasis incidence,1.5%
C[C@H](C(=O)NCc1ccccc1)N1C(=O)CCC1=O,,electroshock seizures,CD-1 mouse,"intraperitoneal, 32 mA, 6 Hz",,protective index,> 32
CCCC(C)C(=O)O (stereo not drawn),,pericardial and yolk oedema,zebrafish embryo,nominal concentration,,EC10,373 µM

# Excerpt of the above:
Compound,target or system,assay,system,setting,how to read,measurement,result
CC(=O)OCC(CCn1cnc2cnc(N)nc21)COC(C)=O,,,rat,,,oral bioavailability,41%
C=CC(=O)NC1CCN(c2ncc3ncnc(Nc4ccc(Oc5ccc6c(c5)ncn6C)c(C)c4)c3n2)CC1,,,human patients,"oral, 120 mg once daily",,treatment discontinuation due to TRAEs,3%
Nc1nc(=O)n([C@@H]2C=C[C@H](CO)O2)cc1F,,,dog,,,oral bioavailability,50%
O=C(O)CN(CC(=O)O)CC(=O)O,,"pH-potentiometry, measured: logK1H",0.15 M NaClO4,25 °C,,protonation constant (log),9.22
c1ccc2c(c1)ccc1c3ccccc3ccc21,,slow stirring,,,,logKow,5.95
COc1cc2c(Oc3ccc4[nH]c(C)cc4c3F)ccnc2cc1OCC1(N)CC1,,,Beagle dog,"0.12 mg/kg, 8 h, NOAEL dose",,AUC(0-t),51.7 ng·h/mL
OC(Cn1cncn1)(Cn1cncn1)c1ccc(F)cc1F,,,human,"oral, 400 mg single dose",,AUC,115000 ng·h/mL
CCCCCCCCCCCCCCCC(=O)N[C@@H](CCC(=O)NCCCC[C@H](NC(=O)[C@H](C)NC(=O)[C@H](C)NC(=O)[C@H](CCC(N)=O)NC(=O)CNC(=O)[C@H](CCC(=O)O)NC(=O)[C@H](CC(C)C)NC(=O)[C@H](Cc1ccc(O)cc1)NC(=O)[C@H](CO)NC(=O)[C@H](CO)NC(=O)[C@@H](NC(=O)[C@H](CC(=O)O)NC(=O)[C@H](CO)NC(=O)[C@@H](NC(=O)[C@H](Cc1ccccc1)NC(=O)[C@@H](NC(=O)CNC(=O)[C@H](CCC(=O)O)NC(=O)[C@H](C)NC(=O)[C@@H](N)Cc1cnc[nH]1)[C@@H](C)O)[C@@H](C)O)C(C)C)C(=O)N[C@@H](CCC(=O)O)C(=O)N[C@@H](Cc1ccccc1)C(=O)N[C@H](C(=O)N[C@@H](C)C(=O)N[C@@H](Cc1c[nH]c2ccccc12)C(=O)N[C@@H](CC(C)C)C(=O)N[C@H](C(=O)N[C@@H](CCCNC(=N)N)C(=O)NCC(=O)N[C@@H](CCCNC(=N)N)C(=O)NCC(=O)O)C(C)C)[C@@H](C)CC)C(=O)O,,,overweight or obese adults,3.0 mg,,cholelithiasis incidence,1.5%
CO[C@H]1C[C@@H]2CC[C@@H](C)[C@@](O)(O2)C(=O)C(=O)N2CCCC[C@H]2C(=O)O[C@H]([C@H](C)C[C@@H]2CC[C@@H](OCCO)[C@H](OC)C2)CC(=O)[C@H](C)/C=C(\C)[C@@H](O)[C@@H](OC)C(=O)[C@H](C)C[C@H](C)/C=C/C=C/C=C/1C,,,plasma,population PK two-compartment,,apparent clearance (CL/F),18.8 L/h
